Results gathered from unrelated publications.
Each line is one published result; not all experiments were run side by side.

Compound = CC[C@H](C)[C@H](NC(=O)CN)C(=O)NCC(=O)N[C@@H](C)C(=O)N[C@H](C(=O)N[C@@H](CC(C)C)C(=O)N[C@@H](CCCCN)C(=O)N[C@H](C(=O)N[C@@H](CC(C)C)C(=O)N[C@H](C(=O)N[C@H](C(=O)NCC(=O)N[C@@H](CC(C)C)C(=O)N1CCC[C@H]1C(=O)N[C@@H](C)C(=O)N[C@@H](CC(C)C)C(=O)N[C@H](C(=O)N[C@@H](CO)C(=O)N[C@@H](Cc1c[nH]c2ccccc12)C(=O)N[C@H](C(=O)N[C@@H](CCCCN)C(=O)N[C@@H](CCCNC(=N)N)C(=O)N[C@@H](CCCCN)C(=O)N[C@@H](CCCNC(=N)N)C(=O)N[C@@H](CCC(N)=O)C(=O)N[C@@H](CCC(N)=O)C(N)=O)[C@@H](C)CC)[C@@H](C)CC)[C@@H](C)O)[C@@H](C)O)C(C)C)C(C)C; organism = Candida albicans; assay = broth microdilution; system = SP3903, RPMI 1640-MOPS; setting = 48 h, 30 °C; quantity = MIC; result = 2 µM
Compound = CC[C@H](C)C[C@H](C)CCCCCCCCC(=O)N[C@H]1C[C@@H](O)[C@@H](NCCN)NC(=O)[C@@H]2[C@@H](O)CCN2C(=O)[C@H]([C@H](O)CCN)NC(=O)[C@H]([C@H](O)[C@@H](O)c2ccc(O)cc2)NC(=O)[C@@H]2C[C@@H](O)CN2C(=O)[C@H]([C@@H](C)O)NC1=O; organism = Candida albicans; assay = EUCAST broth microdilution; system = clinical isolate, RPMI 1640 with MOPS; setting = pH 7.0, 37 °C, 2% glucose; quantity = MIC; result = 0.06 mg/L
Compound = COc1cc(Cc2cnc(N)nc2N)cc(OC)c1OC; organism = Plasmodium falciparum; system = HB3; quantity = IC50; result = 10 µM
Compound = C[C@@H](O)[C@H](NC(=O)[C@H](Cc1c[nH]c2ccccc12)NC(=O)[C@H](Cc1c[nH]c2ccccc12)NC(=O)[C@H](Cc1c[nH]c2ccccc12)NC(=O)[C@@H](NC(=O)[C@H](Cc1c[nH]c2ccccc12)NC(=O)[C@H](CCCNC(=N)N)NC(=O)[C@@H](N)CCCNC(=N)N)[C@@H](C)O)C(=O)N[C@@H](Cc1c[nH]c2ccccc12)C(=O)N[C@@H](CCCNC(=N)N)C(=O)N[C@@H](CCCNC(=N)N)C(N)=O; organism = Candida albicans; system = CGMCC 2.209, RPMI 1640 MOPS-buffered; setting = 48 h, 37 °C, tested up to 128 µM; quantity = MIC; result = 8 µM
Compound = C#Cc1cccc(C=NNC(=O)c2ccc(Br)cc2)c1O; organism = Candida albicans; system = A39; setting = 48 h; quantity = MIC; result = 1 mg/L
Compound = C[C@H](NC(=O)[C@H](CCCNC(=N)N)NC(=O)[C@H](Cc1c[nH]c2ccccc12)NC(=O)[C@H](CCCNC(=N)N)NC(=O)[C@H](Cc1c[nH]c2ccccc12)NC(=O)[C@H](Cc1c[nH]c2ccccc12)NC(=O)[C@H](Cc1c[nH]c2ccccc12)NC(=O)[C@H](CCCNC(=N)N)NC(=O)[C@H](Cc1c[nH]c2ccccc12)NC(=O)[C@H](CCCNC(=N)N)NC(=O)CN)C(N)=O; organism = Candida albicans; assay = broth microdilution; system = CGMCC 2.209, RPMI 1640-MOPS; setting = 48 h, 30 °C, together with: FeCl3 4 µM; quantity = MIC; result = 8 µM
Compound = O=S(=O)(c1ccc(OCC(O)CN2CCCC2)c(Cl)c1)c1ccc(OCC(O)CN2CCCC2)c(Cl)c1 (stereo not drawn); organism = Candida albicans; system = DSY654 Cdr knockout; quantity = MIC; result = > 128 mg/L
Compound = Cl.O[C@]12C=C(c3nccc4c3[nH]c3ccccc34)[C@@H]3CCN(CCCC/C=C\CC1)C[C@@]31C[C@@H]3/C=C\CCCCN3[C@H]12; organism = Candida albicans; system = ATCC 90028; quantity = MIC; result = 20 mg/L
Compound = CC[C@H](C)[C@H](NC(=O)[C@H](CCCNC(=N)N)NC(=O)[C@H](Cc1c[nH]c2ccccc12)NC(=O)[C@H](CCCNC(=N)N)NC(=O)[C@H](Cc1c[nH]c2ccccc12)NC(=O)[C@H](Cc1c[nH]c2ccccc12)NC(=O)[C@H](Cc1c[nH]c2ccccc12)NC(=O)[C@H](CCCNC(=N)N)NC(=O)[C@H](Cc1c[nH]c2ccccc12)NC(=O)[C@H](CCCNC(=N)N)NC(=O)CN)C(N)=O; organism = Candida albicans; system = CGMCC 2.209; setting = no added salts; quantity = MIC; result = 8 µM
Compound = CC[C@H](C)[C@H](NC(=O)CN)C(=O)NCC(=O)N[C@@H](C)C(=O)N[C@H](C(=O)N[C@@H](CC(C)C)C(=O)N[C@@H](CCCCN)C(=O)N[C@H](C(=O)N[C@@H](CC(C)C)C(=O)N[C@H](C(=O)N[C@H](C(=O)NCC(=O)N[C@@H](CC(C)C)C(=O)N1CCC[C@H]1C(=O)N[C@@H](C)C(=O)N[C@@H](CC(C)C)C(=O)N[C@H](C(=O)N[C@@H](CO)C(=O)N[C@@H](Cc1c[nH]c2ccccc12)C(=O)N[C@H](C(=O)N[C@@H](CCCCN)C(=O)N[C@@H](CCCNC(=N)N)C(=O)N[C@@H](CCCCN)C(=O)N[C@@H](CCCNC(=N)N)C(=O)N[C@@H](CCC(N)=O)C(=O)N[C@@H](CCC(N)=O)C(N)=O)[C@@H](C)CC)[C@@H](C)CC)[C@@H](C)O)[C@@H](C)O)C(C)C)C(C)C; organism = Candida albicans; assay = broth microdilution; system = 14936, RPMI-1640; setting = 48 h, 30 °C; quantity = MIC; result = 4 µM
Compound = CC[C@H](C)[C@H](NC(=O)[C@H](CCCNC(=N)N)NC(=O)[C@H](Cc1c[nH]c2ccccc12)NC(=O)[C@H](CCCNC(=N)N)NC(=O)[C@H](Cc1c[nH]c2ccccc12)NC(=O)[C@H](Cc1c[nH]c2ccccc12)NC(=O)[C@H](Cc1c[nH]c2ccccc12)NC(=O)[C@H](CCCNC(=N)N)NC(=O)[C@H](Cc1c[nH]c2ccccc12)NC(=O)[C@@H](N)CCCNC(=N)N)C(N)=O; organism = Candida albicans; assay = broth microdilution; system = CGMCC 2.209, RPMI 1640-MOPS; setting = 48 h, 30 °C, together with: NaCl 150 mM; quantity = MIC; result = 32 µM
Compound = CC[C@H](C)[C@H](NC(=O)[C@@H](NC(=O)[C@H](Cc1c[nH]c2ccccc12)NC(=O)[C@H](Cc1c[nH]c2ccccc12)NC(=O)[C@H](CCCNC(=N)N)NC(=O)[C@@H](N)CCCNC(=N)N)[C@@H](C)O)C(=O)N[C@H](C(N)=O)C(C)C; organism = Candida albicans; quantity = MIC; result = > 512 mg/L
Compound = CC[C@H](C)[C@H](NC(=O)CN)C(=O)N[C@@H](CC(C)C)C(=O)N[C@@H](CC(=O)O)C(=O)N[C@@H](C)C(=O)N[C@H](C(=O)N[C@@H](CCCCN)C(=O)N[C@@H](C)C(=O)N[C@H](C(=O)N[C@@H](C)C(=O)N[C@@H](CCCCN)C(=O)N[C@@H](C)C(=O)N[C@H](C(=O)N[C@@H](CCCCN)C(=O)N[C@@H](C)C(=O)N[C@@H](CCCCN)C(=O)N[C@@H](C)C(=O)NCC(N)=O)[C@@H](C)CC)[C@@H](C)CC)[C@@H](C)CC; organism = Candida albicans; system = ATCC 90029, RPMI MOPS; setting = 24 h, pH 7.0, 33 °C; quantity = MIC; result = 64 mg/L
Compound = Nc1nc(N)c2nc(-c3ccccc3)c(N)nc2n1; organism = Plasmodium falciparum; system = 7G8; quantity = IC50; result = 12.6 µM
Compound = OC(Cn1cncn1)(Cn1cncn1)c1ccc(F)cc1F; organism = Candida albicans; system = 56214; setting = 48 h, 30 °C, RPMI-1640; quantity = MIC; result = 128 µM

For quick reference, copied from above:
Compound = CC[C@H](C)[C@H](NC(=O)CN)C(=O)NCC(=O)N[C@@H](C)C(=O)N[C@H](C(=O)N[C@@H](CC(C)C)C(=O)N[C@@H](CCCCN)C(=O)N[C@H](C(=O)N[C@@H](CC(C)C)C(=O)N[C@H](C(=O)N[C@H](C(=O)NCC(=O)N[C@@H](CC(C)C)C(=O)N1CCC[C@H]1C(=O)N[C@@H](C)C(=O)N[C@@H](CC(C)C)C(=O)N[C@H](C(=O)N[C@@H](CO)C(=O)N[C@@H](Cc1c[nH]c2ccccc12)C(=O)N[C@H](C(=O)N[C@@H](CCCCN)C(=O)N[C@@H](CCCNC(=N)N)C(=O)N[C@@H](CCCCN)C(=O)N[C@@H](CCCNC(=N)N)C(=O)N[C@@H](CCC(N)=O)C(=O)N[C@@H](CCC(N)=O)C(N)=O)[C@@H](C)CC)[C@@H](C)CC)[C@@H](C)O)[C@@H](C)O)C(C)C)C(C)C; organism = Candida albicans; assay = broth microdilution; system = 14936, RPMI-1640; setting = 48 h, 30 °C; quantity = MIC; result = 4 µM
